{"data": "Measurements from different studies", "note": "Each numbered part is a random draw from the data of one study; scales do not carry over between parts. pIC50: −log10 of the molar value.", "UniProt O14730, sequence (whole entry, looked up)": "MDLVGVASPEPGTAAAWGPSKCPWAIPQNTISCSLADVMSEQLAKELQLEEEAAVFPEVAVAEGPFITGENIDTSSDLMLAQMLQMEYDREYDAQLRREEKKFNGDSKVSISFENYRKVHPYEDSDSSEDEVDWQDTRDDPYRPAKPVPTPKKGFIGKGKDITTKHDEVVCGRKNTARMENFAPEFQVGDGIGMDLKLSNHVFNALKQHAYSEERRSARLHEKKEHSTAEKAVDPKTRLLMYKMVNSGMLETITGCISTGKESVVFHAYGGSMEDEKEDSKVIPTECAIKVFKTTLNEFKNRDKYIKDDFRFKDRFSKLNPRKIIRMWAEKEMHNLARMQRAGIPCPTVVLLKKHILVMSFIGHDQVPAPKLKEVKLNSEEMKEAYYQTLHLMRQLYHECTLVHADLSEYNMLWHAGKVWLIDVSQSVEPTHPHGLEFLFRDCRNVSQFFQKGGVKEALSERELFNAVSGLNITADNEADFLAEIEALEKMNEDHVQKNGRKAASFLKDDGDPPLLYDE", "UniProt P07949, sequence (whole entry, looked up)": "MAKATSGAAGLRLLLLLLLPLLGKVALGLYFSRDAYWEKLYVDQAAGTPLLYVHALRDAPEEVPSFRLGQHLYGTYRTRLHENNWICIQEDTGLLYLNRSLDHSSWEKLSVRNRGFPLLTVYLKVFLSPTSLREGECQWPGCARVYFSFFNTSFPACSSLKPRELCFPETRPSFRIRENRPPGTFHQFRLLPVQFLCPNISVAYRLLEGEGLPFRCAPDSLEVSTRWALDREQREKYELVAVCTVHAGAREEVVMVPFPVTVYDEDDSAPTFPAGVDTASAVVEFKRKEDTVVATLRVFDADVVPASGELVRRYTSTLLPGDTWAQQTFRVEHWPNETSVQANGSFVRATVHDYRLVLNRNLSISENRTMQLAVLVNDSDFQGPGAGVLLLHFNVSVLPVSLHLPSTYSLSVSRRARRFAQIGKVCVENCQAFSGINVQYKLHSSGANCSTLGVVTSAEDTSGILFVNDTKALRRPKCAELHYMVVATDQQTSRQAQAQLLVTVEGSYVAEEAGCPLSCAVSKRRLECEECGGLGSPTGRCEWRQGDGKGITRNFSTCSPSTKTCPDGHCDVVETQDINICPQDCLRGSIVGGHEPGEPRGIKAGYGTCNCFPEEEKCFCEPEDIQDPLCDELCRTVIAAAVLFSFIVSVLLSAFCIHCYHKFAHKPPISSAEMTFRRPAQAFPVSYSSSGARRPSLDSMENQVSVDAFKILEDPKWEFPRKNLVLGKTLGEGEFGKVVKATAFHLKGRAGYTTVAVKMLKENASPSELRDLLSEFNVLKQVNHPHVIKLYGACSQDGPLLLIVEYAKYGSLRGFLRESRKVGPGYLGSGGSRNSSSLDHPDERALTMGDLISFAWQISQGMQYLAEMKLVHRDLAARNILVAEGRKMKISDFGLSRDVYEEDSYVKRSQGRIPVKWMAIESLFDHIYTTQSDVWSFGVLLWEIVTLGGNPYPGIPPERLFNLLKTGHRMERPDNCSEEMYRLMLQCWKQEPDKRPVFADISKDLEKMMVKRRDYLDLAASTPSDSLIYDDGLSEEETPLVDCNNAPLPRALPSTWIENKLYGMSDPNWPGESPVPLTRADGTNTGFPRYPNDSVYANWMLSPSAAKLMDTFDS", "UniProt Q8NFD2, sequence (whole entry, looked up)": "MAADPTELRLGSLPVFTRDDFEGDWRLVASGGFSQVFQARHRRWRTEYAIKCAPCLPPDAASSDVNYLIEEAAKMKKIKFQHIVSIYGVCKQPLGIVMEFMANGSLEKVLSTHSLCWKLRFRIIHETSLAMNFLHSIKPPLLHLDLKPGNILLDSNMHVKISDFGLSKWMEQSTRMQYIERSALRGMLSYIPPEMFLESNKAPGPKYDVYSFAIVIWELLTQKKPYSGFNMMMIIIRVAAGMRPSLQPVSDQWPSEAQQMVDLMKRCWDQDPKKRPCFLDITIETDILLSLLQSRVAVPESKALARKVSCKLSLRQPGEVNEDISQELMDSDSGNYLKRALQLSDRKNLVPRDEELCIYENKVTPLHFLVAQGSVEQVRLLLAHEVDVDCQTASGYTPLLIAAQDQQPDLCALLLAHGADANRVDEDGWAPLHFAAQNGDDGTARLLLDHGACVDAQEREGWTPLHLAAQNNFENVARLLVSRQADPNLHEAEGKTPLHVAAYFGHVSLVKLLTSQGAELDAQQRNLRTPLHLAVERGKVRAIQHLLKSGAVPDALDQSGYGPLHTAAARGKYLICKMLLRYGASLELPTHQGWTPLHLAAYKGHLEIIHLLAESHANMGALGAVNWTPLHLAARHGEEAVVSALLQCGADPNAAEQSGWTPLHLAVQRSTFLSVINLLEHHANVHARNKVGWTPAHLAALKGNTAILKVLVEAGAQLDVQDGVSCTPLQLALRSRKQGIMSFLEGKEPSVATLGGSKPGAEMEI", "UniProt P22607, sequence (whole entry, unmodified, looked up)": "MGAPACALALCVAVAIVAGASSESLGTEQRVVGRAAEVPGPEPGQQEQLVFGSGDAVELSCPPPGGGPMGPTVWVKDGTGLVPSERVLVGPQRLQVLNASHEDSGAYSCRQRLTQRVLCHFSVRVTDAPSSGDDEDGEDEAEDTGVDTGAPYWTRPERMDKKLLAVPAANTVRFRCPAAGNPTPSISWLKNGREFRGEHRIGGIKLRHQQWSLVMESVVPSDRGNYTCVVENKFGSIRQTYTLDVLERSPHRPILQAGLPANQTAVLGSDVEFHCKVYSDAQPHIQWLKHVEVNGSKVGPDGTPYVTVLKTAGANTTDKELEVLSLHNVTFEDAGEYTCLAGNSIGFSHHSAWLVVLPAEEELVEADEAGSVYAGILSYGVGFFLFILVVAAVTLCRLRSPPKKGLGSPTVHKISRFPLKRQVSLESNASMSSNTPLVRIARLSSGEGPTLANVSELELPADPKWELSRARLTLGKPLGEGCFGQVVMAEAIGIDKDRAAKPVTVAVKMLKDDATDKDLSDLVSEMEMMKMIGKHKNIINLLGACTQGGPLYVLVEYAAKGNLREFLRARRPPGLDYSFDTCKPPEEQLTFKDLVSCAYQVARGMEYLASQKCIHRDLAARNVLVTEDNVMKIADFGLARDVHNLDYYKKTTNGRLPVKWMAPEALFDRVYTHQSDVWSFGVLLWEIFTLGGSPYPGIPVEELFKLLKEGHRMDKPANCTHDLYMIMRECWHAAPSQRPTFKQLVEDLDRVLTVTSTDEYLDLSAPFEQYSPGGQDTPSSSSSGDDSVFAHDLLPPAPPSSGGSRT", "UniProt O14757, sequence (whole entry, looked up)": "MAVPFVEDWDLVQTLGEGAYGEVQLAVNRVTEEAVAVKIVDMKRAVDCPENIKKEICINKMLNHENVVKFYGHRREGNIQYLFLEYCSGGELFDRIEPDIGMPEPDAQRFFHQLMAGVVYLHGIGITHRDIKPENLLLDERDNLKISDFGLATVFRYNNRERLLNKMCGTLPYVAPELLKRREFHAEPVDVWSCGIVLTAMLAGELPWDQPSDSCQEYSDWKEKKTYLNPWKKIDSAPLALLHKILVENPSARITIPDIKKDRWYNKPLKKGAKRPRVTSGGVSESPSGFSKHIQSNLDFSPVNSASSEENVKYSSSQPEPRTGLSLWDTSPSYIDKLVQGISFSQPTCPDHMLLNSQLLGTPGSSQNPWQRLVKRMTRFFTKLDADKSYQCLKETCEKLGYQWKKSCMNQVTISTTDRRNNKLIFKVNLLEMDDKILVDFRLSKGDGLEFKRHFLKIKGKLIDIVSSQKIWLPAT", "UniProt P11802, sequence (whole entry, looked up)": "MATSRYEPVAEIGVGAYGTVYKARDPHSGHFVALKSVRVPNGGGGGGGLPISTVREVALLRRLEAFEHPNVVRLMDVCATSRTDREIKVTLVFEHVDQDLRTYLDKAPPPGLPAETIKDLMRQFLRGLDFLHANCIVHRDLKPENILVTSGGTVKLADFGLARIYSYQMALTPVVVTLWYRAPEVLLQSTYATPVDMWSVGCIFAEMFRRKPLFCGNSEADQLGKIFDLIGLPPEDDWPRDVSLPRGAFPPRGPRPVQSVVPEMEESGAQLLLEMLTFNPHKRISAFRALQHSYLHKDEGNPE", "UniProt P27037, sequence (whole entry, looked up)": "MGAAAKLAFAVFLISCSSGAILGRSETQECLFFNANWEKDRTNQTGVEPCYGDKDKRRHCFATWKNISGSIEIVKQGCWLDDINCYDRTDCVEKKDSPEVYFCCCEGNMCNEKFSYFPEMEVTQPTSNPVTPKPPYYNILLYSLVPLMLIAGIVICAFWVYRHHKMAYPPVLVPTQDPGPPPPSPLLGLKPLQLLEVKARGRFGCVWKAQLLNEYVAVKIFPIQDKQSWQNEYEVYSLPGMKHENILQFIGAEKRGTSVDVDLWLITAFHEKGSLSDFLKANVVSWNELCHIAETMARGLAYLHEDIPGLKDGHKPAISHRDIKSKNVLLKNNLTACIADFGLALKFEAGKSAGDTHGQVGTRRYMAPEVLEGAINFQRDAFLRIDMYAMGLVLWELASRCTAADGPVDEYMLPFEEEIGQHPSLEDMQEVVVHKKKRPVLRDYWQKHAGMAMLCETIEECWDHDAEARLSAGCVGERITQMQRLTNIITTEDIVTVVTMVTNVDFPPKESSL"}
{"data": "Block 1", "SMILES": "C[C@H](c1cccc(C#N)c1)n1cc(Cl)cc(C(N)=O)c1=N", "technique": "competition with immobilised ligand", "concentration": "1 µM"}
{"target": "Tyrosine-protein kinase ABL1, phosphorylated (ABL1, Homo sapiens, UniProt P00519, E255K)", "effect on": "binding", "remaining binding": "87%"}
{"target": "Ankyrin repeat and protein kinase domain-containing protein 1 (ANKK1, Homo sapiens, UniProt Q8NFD2)", "effect on": "cell-free assay", "remaining binding": "98%"}
{"target": "Cyclin-dependent kinase 4 (CDK4, Homo sapiens, UniProt P11802)", "effect on": "cell-free assay", "remaining binding": "88%"}
{"target": "Serine/threonine-protein kinase Chk1 (CHEK1, Homo sapiens, UniProt O14757)", "effect on": "cell-free assay", "remaining binding": "100%"}
{"target": "Glycogen synthase kinase-3 beta (GSK3B, Homo sapiens, UniProt P49841)", "effect on": "cell-free assay", "remaining binding": "95%"}
{"target": "Receptor-type tyrosine-protein kinase FLT3 (FLT3, Homo sapiens, UniProt P36888, D835H)", "effect on": "cell-free assay", "remaining binding": "80%"}
{"target": "Serine/threonine-protein kinase MRCK beta (CDC42BPB, Homo sapiens, UniProt Q9Y5S2)", "effect on": "cell-free assay", "remaining binding": "85%"}
{"target": "Activin receptor type-2A (ACVR2A, Homo sapiens, UniProt P27037)", "effect on": "cell-free assay", "remaining binding": "100%"}
{"target": "Tyrosine-protein kinase ABL1, phosphorylated (ABL1, Homo sapiens, UniProt P00519, M351T)", "effect on": "cell-free assay", "remaining binding": "100%"}
{"target": "Dual specificity tyrosine-phosphorylation-regulated kinase 1B (DYRK1B, Homo sapiens, UniProt Q9Y463)", "effect on": "cell-free assay", "remaining binding": "63%"}
{"target": "Serine/threonine-protein kinase STK11 (STK11, Homo sapiens, UniProt Q15831)", "effect on": "cell-free assay", "remaining binding": "96%"}
{"target": "Fibroblast growth factor receptor 3 (FGFR3, Homo sapiens, UniProt P22607, G697C)", "effect on": "cell-free assay", "remaining binding": "100%"}
{"target": "Receptor-type tyrosine-protein kinase FLT3 (FLT3, Homo sapiens, UniProt P36888, N841I)", "effect on": "cell-free assay", "remaining binding": "97%"}
{"target": "Calcium/calmodulin-dependent protein kinase type 1D (CAMK1D, Homo sapiens, UniProt Q8IU85)", "effect on": "cell-free assay", "remaining binding": "97%"}
{"target": "Proto-oncogene tyrosine-protein kinase receptor Ret (RET, Homo sapiens, UniProt P07949)", "effect on": "cell-free assay", "remaining binding": "94%"}
{"target": "Mitogen-activated protein kinase kinase kinase kinase 3 (MAP4K3, Homo sapiens, UniProt Q8IVH8)", "effect on": "cell-free assay", "remaining binding": "76%"}
{"target": "Serine/threonine-protein kinase RIO3 (RIOK3, Homo sapiens, UniProt O14730)", "effect on": "cell-free assay", "remaining binding": "100%"}
{"data": "Block 2", "cell line": "mouse MPNST tumor cells", "technique": "high-content immunofluorescence imaging", "refers to": "nuclear SOX9", "concentration": "10 µM", "time": "12 h", "notes": "mean of 2 replicates", "relative to": "DMSO control", "direction": "higher = more nuclear SOX9"}
{"SMILES": "Cc1cccc(-c2[nH]ncc2-c2ccc3ncccc3n2)n1", "nuclear SOX9 intensity": "95.9 % of DMSO"}
{"SMILES": "Cc1nc2cnc3ccc(C#Cc4cccnc4)cc3c2n1-c1ccc(C(C)(C)C#N)cc1", "nuclear SOX9 intensity": "111 % of DMSO"}
{"SMILES": "Cc1cc(C)cc(-c2cnc3cc(Cl)c(-c4cccc(O)c4)cc3c2OCCCN)c1", "nuclear SOX9 intensity": "205 % of DMSO"}
{"data": "Block 3", "target": "Beta-1 adrenergic receptor (ADRB1, Homo sapiens, UniProt P08588)", "mode": "antagonist", "UniProt P08588, sequence (whole entry, looked up)": "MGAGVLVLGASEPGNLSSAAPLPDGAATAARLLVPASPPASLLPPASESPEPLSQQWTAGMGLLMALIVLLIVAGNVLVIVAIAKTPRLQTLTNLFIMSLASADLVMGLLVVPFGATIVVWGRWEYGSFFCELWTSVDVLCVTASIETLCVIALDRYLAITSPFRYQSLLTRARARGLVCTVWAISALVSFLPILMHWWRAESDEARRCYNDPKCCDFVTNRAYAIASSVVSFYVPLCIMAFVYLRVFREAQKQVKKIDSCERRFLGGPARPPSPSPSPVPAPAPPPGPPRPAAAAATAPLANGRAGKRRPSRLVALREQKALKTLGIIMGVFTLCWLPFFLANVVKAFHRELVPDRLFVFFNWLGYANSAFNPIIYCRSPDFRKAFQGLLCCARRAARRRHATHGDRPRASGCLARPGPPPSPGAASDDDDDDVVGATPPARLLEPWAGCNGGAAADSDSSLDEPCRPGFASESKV"}
{"Compound": "Cc1cc2c(-c3cccc(O)c3)nc(-c3c(C)noc3C)cc2[nH]1", "pIC50": "≤ 4.00"}
{"Compound": "Cn1nnnc1SCCCNCc1ccccc1OCc1ccccc1Cl", "pIC50": "≤ 4.00"}
{"Compound": "c1ccc(-c2nc(NCc3cc4n(n3)CCCNC4)c3ccccc3n2)cc1", "pIC50": "≤ 4.00"}
{"Compound": "Cc1cccc(OCc2cc(=O)n3cccc(C)c3n2)c1C", "pIC50": "≤ 4.00"}
{"Compound": "COc1ccccc1N1CCN([S+](=O)([O-])c2c(C)cc(C)cc2C)CC1", "pIC50": "≤ 4.00"}
{"data": "Block 4", "organism": "Sarcocystis neurona", "effect on": "parasite growth", "concentration": "concentration not given", "notes": "second screen", "relative to": "untreated"}
{"SMILES": "CN1C(C(=O)Nc2ccccn2)=C(O)c2ccccc2S1(=O)=O.O", "log2 fold change": 0.27}
{"SMILES": "CC(CCCCC(=O)Nc1ccc(C(F)(F)F)cc1)NCCc1cnc[nH]1 (centres unmarked)", "log2 fold change": 0.11}
{"SMILES": "Cl.O.O=C1N(c2ccccc2)c2ccccc2C1(Cc1ccncc1)Cc1ccncc1", "log2 fold change": 0.3}
{"SMILES": "CN1[C@@H](CC(=O)c2ccccc2)CCC[C@H]1C[C@H](O)c1ccccc1.Cl", "log2 fold change": 0.32}
{"SMILES": "O=C(O)c1cc2ccccc2c(Cc2c(O)c(C(=O)O)cc3ccccc23)c1O.OCCOCCN1CCN(C(c2ccccc2)c2ccc(Cl)cc2)CC1", "log2 fold change": 0.15}
{"data": "Block 5", "species": "human", "medium": "microsomes or S9", "concentration": "2 µM", "time": "0.5 h"}
{"SMILES": "CC(C)(C)c1cc(-c2c(O)c3ccc(Cl)cc3[nH]c2=O)cc(C(C)(C)C)c1O", "remaining compound": "89.9%"}
{"SMILES": "c1ccc(C(CNc2ccc3nnnn3n2)c2c[nH]c3ccccc23)cc1 (centres unmarked)", "remaining compound": "22.8%"}
{"SMILES": "CC(C)N(C(=O)COC(=O)c1ccc(C(C)(C)C)cc1)C(C)C", "remaining compound": "< 1%"}
{"SMILES": "COCC(C)(O)CNS(=O)(=O)c1ccc(N2CCCCS2(=O)=O)cc1 (centres unmarked)", "remaining compound": "> 100%"}
{"SMILES": "O=C(O)CCCN1C(=O)C2Cc3ccccc3CN2C1=O (centres unmarked)", "remaining compound": "18.2%"}
{"note": "Some of these lines once more (block 1):"}
{"target": "Cyclin-dependent kinase 4 (CDK4, Homo sapiens, UniProt P11802)", "effect on": "cell-free assay", "remaining binding": "88%"}
{"target": "Glycogen synthase kinase-3 beta (GSK3B, Homo sapiens, UniProt P49841)", "effect on": "cell-free assay", "remaining binding": "95%"}
{"target": "Proto-oncogene tyrosine-protein kinase receptor Ret (RET, Homo sapiens, UniProt P07949)", "effect on": "cell-free assay", "remaining binding": "94%"}
{"target": "Calcium/calmodulin-dependent protein kinase type 1D (CAMK1D, Homo sapiens, UniProt Q8IU85)", "effect on": "cell-free assay", "remaining binding": "97%"}
{"target": "Ankyrin repeat and protein kinase domain-containing protein 1 (ANKK1, Homo sapiens, UniProt Q8NFD2)", "effect on": "cell-free assay", "remaining binding": "98%"}
